Published values from different studies.
Parts stem from different laboratories: compare values within a part only.
Chain of UniProt Q16566 (whole entry, looked up): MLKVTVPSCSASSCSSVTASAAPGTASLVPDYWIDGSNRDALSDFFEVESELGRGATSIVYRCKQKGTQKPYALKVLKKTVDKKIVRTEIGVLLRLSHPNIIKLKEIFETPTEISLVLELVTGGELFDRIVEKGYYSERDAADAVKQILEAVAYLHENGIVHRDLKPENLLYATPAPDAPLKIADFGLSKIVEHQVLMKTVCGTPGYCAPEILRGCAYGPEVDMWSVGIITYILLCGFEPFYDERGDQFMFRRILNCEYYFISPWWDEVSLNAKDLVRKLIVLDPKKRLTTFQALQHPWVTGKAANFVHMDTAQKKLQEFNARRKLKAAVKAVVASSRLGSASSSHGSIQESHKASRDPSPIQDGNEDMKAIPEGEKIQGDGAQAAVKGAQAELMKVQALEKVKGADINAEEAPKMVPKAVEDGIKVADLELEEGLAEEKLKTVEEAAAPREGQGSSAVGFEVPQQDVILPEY
Chain of UniProt Q9UM73 (whole entry, unmodified, looked up): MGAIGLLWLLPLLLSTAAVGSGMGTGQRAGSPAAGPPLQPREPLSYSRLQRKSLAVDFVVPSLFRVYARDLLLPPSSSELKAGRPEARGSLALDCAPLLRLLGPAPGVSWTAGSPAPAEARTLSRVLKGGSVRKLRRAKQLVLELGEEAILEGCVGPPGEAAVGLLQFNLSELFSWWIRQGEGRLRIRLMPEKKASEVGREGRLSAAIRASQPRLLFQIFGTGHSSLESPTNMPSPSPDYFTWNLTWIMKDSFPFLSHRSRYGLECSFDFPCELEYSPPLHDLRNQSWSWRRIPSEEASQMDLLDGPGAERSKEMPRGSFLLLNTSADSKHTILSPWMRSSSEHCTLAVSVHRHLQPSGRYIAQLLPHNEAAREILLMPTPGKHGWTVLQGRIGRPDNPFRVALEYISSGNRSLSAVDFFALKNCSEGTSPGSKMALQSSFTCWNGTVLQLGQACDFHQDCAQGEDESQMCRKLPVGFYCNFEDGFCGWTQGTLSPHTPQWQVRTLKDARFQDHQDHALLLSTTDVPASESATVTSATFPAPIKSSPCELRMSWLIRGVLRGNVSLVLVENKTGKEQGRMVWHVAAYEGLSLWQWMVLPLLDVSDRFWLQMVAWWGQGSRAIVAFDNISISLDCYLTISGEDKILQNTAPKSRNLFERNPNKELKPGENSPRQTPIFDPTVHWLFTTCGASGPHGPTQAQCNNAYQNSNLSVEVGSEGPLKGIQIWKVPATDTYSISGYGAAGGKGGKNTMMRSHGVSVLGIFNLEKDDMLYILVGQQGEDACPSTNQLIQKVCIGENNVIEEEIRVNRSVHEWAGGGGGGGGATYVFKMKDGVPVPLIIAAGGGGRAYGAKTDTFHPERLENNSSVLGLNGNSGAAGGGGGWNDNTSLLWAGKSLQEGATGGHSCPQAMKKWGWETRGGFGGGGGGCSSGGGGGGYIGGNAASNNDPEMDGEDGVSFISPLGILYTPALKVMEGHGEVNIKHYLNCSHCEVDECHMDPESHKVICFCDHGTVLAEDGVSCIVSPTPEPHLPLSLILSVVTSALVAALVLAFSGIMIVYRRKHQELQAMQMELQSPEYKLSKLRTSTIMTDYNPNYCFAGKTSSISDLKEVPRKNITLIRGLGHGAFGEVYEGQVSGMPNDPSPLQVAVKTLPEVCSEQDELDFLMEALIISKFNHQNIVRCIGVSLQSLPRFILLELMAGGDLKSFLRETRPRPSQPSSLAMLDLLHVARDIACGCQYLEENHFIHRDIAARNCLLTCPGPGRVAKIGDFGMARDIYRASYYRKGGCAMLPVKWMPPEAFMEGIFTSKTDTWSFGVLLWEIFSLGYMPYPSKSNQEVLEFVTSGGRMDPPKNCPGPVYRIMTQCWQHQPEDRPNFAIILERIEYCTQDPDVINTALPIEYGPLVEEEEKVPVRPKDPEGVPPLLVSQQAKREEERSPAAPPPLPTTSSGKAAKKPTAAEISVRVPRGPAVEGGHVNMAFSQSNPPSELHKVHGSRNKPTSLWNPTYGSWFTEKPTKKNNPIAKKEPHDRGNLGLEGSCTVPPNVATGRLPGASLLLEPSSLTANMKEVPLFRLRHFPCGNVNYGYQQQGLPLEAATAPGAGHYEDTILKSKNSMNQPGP
Chain of UniProt Q13237 (whole entry, looked up): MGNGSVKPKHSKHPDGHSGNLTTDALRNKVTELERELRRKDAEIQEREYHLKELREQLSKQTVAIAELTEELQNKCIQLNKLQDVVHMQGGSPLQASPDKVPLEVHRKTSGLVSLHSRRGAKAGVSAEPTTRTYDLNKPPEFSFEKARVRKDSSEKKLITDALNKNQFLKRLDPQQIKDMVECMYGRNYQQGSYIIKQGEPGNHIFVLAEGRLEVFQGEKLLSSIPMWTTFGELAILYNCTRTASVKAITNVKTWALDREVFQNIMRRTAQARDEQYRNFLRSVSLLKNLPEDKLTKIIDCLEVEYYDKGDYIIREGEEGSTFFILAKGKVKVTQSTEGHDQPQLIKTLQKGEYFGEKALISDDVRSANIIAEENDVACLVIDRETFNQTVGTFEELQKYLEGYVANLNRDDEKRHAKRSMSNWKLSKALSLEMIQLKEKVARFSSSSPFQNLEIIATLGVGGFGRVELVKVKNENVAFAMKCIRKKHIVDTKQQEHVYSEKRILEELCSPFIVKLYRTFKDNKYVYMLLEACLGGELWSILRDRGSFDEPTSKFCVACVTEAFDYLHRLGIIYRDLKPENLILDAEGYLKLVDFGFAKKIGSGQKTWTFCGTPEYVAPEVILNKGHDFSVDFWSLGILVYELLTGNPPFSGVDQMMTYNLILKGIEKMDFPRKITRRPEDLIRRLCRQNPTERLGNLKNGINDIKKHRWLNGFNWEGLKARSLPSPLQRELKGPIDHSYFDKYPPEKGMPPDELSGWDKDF
Chain of UniProt P0C1S8 (whole entry, looked up): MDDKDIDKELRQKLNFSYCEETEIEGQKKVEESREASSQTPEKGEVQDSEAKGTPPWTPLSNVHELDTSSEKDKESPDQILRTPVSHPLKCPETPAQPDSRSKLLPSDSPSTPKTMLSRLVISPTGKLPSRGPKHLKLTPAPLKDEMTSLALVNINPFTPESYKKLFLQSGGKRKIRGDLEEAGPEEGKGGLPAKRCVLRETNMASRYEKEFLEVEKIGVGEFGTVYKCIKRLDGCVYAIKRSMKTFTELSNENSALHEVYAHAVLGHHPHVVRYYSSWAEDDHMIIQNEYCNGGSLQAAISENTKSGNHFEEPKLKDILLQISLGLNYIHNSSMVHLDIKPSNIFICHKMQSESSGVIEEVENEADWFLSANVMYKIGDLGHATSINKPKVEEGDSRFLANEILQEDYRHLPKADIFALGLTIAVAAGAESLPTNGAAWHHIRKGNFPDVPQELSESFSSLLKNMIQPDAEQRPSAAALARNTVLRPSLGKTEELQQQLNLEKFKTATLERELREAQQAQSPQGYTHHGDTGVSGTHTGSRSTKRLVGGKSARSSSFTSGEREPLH
Chain of UniProt P29376 (whole entry, looked up): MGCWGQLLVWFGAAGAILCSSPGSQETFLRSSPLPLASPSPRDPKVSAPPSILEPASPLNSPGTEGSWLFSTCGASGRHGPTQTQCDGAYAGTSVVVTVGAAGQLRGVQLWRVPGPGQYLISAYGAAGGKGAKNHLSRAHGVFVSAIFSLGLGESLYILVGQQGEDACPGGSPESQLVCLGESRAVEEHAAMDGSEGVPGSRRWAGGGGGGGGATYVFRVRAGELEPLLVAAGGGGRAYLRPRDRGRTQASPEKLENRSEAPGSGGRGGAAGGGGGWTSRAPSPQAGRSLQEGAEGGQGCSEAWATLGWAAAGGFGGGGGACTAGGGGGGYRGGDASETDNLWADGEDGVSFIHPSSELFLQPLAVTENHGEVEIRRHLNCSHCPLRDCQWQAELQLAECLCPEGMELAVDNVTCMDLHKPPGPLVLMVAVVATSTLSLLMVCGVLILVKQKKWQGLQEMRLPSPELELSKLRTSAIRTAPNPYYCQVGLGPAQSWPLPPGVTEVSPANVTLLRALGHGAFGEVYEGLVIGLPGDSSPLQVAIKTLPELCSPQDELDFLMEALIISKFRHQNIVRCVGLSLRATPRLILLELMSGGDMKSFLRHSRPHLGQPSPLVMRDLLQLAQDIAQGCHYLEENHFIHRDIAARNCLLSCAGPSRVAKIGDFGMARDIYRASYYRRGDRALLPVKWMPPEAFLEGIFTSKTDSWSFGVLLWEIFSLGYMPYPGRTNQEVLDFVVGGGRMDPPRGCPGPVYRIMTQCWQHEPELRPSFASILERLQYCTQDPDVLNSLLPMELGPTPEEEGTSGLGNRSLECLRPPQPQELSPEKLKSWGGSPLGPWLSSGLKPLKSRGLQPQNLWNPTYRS

Set 1
Compound: CN(C)CC#Cc1ccc(OCCCc2sc(N3CCc4cccc(C(=O)Nc5nc6ccccc6s5)c4C3)nc2C(=O)O)c(F)c1
Observed: cell-free assay
Technique: competition with immobilised ligand
Concentration: 1 µM
Endpoint: remaining binding
LTK (Homo sapiens, UniProt P29376): 100%
WEE2 (Homo sapiens, UniProt P0C1S8): 100%
PRKG2 (Homo sapiens, UniProt Q13237): 86%
Ribosomal protein S6 kinase alpha-3, C-terminal kinase domain (RPS6KA3, Homo sapiens, UniProt P51812): 100%
ALK (Homo sapiens, UniProt Q9UM73, C1156Y): 100%
CAMK4 (Homo sapiens, UniProt Q16566): 98%
FLT3 (Homo sapiens, UniProt P36888, K663Q): 100%

Set 2
Host: mouse
Matrix: microsomes or S9
Concentration: 2 µM
Time: 0.5 h
Endpoint: remaining compound
COCCN(Cc1ccc(C)c(Br)c1)C(=O)Cn1cnc(S(=O)(=O)N2CCCC2)c1: 77.8%
Cc1cc2c(nc1C)sc1c(=O)n(C(C)C)cnc12: 8.24%
CC(=O)c1cc(CN2CCOCC2CC(=O)NCCc2ncnn2C)cs1 (centres unmarked): 94.9%
Cc1cn2c(CNc3ncnc4c3cnn4C)c(C)nc2s1: 0.127%
O=C(Cc1ccc(Cl)s1)NC(CO)c1c(F)cccc1F (centres unmarked): 8.92%
Brc1cc(-c2noc([C@H]3CCCO3)n2)c2ncnn2c1: 3.78%

Set 3
Organism: Plasmodium berghei
Action: inhibitor
Cell line: Huh-7
Strain: GFP-expressing, liver stage
Concentration: 10 µM
Time: 24 h
Relative to: untreated control
Endpoint: infection rate
COc1cc([C@@H]2c3cc4c(cc3[C@@H](O[C@@H]3O[C@@H]5CO[C@@H](c6cccs6)O[C@H]5[C@H](O)[C@H]3O)[C@H]3COC(=O)[C@H]23)OCO4)cc(OC)c1O: 26.6%
Cn1cnc2c1c(=O)[nH]c(=O)n2C: 90%
NC[C@H](O)c1ccc(O)c(O)c1: 86.8%
COC(=O)Nc1nc2cc([S+]([O-])c3ccccc3)ccc2[nH]1 (centres unmarked): 104%
N=C(N)NS(=O)(=O)c1ccc(N)cc1: 101%
Cc1ccc(C(=O)Nc2ccc(S(=O)(=O)O)c3cc(S(=O)(=O)O)cc(S(=O)(=O)O)c23)cc1NC(=O)c1cccc(NC(=O)Nc2cccc(C(=O)Nc3cc(C(=O)Nc4ccc(S(=O)(=O)O)c5cc(S(=O)(=O)O)cc(S(=O)(=O)O)c45)ccc3C)c2)c1: 86.6%

Set 4
Target: Protein kinase C zeta type (PRKCZ, Homo sapiens, UniProt Q05513)
Chain of UniProt Q05513 (whole entry, looked up): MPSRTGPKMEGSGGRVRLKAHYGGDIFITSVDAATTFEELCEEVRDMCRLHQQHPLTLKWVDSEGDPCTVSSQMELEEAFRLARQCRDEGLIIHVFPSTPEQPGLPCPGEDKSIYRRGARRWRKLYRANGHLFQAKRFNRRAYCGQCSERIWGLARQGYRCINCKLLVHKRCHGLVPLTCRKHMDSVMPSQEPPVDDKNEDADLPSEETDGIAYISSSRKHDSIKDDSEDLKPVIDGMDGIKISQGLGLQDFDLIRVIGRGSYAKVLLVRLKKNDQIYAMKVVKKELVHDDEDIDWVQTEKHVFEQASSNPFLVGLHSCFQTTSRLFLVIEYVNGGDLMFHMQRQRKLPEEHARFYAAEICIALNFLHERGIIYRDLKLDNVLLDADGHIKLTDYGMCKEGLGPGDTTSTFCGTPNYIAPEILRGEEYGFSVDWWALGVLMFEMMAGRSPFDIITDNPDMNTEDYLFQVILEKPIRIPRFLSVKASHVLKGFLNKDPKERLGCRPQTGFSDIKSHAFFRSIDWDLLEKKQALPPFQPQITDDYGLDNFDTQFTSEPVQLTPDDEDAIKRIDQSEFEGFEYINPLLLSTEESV
Observed: enzyme activity
Action: inhibitor
Concentration: 0.5 µM
Relative to: control
Endpoint: remaining activity
Cn1sc(=O)n(Cc2ccccc2)c1=O: 101%
Cc1ccc(NC(=O)c2ccc(CN3CCN(C)CC3)cc2)cc1Nc1nc(-c2cccnc2)cs1: 103%
O=C(O)c1ccc2c3c1cccc3c(=O)n1c3ccccc3nc21: 94.3%
CO[C@H]1C[C@@H]2CC[C@@H](C)[C@@](O)(O2)C(=O)C(=O)N2CCCC[C@H]2C(=O)O[C@H]([C@H](C)C[C@@H]2CC[C@@H](O)[C@H](OC)C2)CC(=O)[C@H](C)/C=C(\C)[C@@H](O)[C@@H](OC)C(=O)[C@H](C)C[C@H](C)/C=C/C=C/C=C/1C: 105%
CC(C)[C@H](CO)Nc1nc(Nc2cc(N)cc(Cl)c2)c2ncn(C(C)C)c2n1: 101%
COc1cc2ncnc(Nc3ccc(F)c(Cl)c3)c2cc1OCCCN1CCOCC1: 92.5%
Oc1ccc(-c2nc(-c3ccncc3)c(-c3ccc(F)cc3)[nH]2)cc1: 109%
COc1ccc(OC)c2c(=S)c3ccccc3[nH]c12: 99.4%
O=C1NC(=O)C(c2cn(CCCn3ccnc3)c3ccccc23)=C1Nc1ccccc1: 99.6%
OCC(O)CCON=C1C(c2c(O)[nH]c3ccccc23)=Nc2ccccc21 (centres unmarked): 98.5%
COc1cc2nccc(Oc3ccc(NC(=S)NC(=O)c4ccccc4C)cc3)c2cc1OC: 96.9%
O=S(=O)(c1cccc2cnccc12)N1CCCNCC1: 94.7%
CN(C)c1ccc(C=C2C(=O)Nc3ccccc32)cc1: 112%
COc1cc2ncnc(Nc3ccc(Oc4ccccc4)cc3)c2cc1OC: 100%
O=C(Nc1cccc(Nc2cc(Nc3cccc(C(F)(F)F)c3)ncn2)c1)C1CC1: 104%
Cc1cccc(-c2[nH]c(C(C)(C)C)nc2-c2ccc3c(c2)OCO3)n1: 87.9%
